Results collected from several papers.
Lines come from different studies, so protocols differ. ± gives the spread as reported.

COc1cccc(-c2n[nH]c(SCc3ccccn3)n2)c1OC — plasma concentration (Sprague-Dawley rats, both sexes; oral dietary, 10 mg/kg/day, day 7, 3 h): 162 ng/mL
N[C@@H](CC(=O)O)C(=O)OC(C(=O)O)c1ccccc1[N+](=O)[O-].O=C(O)C(F)(F)F (mixture of isomers) — hydrolysis half-life, A isomer (1H NMR, dark; 50 mM sodium phosphate; concentration not given, pH 9.0, room temperature, 12.5% DMSO-d6): 14.6 ± 0.2 h
OC[C@H]1O[C@@H](c2ccc(F)c(Cc3cc4ccccc4s3)c2)[C@H](O)[C@@H](O)[C@@H]1O — renal clearance (Japanese type 2 diabetes patients, plasma; oral, 25 mg/day, day 1): 1.83 ± 0.373 mL/min
C[C@@H]1COCCN1c1cc(C2([S@](C)(=N)=O)CC2)nc(-c2cc[nH]c3nccc2-3)n1 — Nausea incidence (Japanese advanced solid tumour patients; oral, 160 mg twice daily, CTCAE grade ≥3): 0%
CC#CC(=O)N1CC[C@@H](n2c(=O)n(-c3ccc(Oc4ccccc4)cc3)c3c(N)ncnc32)C1 — AUC(0-24h) (human, fasting, plasma; oral, 160 mg once daily, cycle 1 day 1): 3290 ± 555 ng·h/mL
O=C(O)CCC(=O)O.[2H]C([2H])([2H])Oc1cc(C)c2[nH]ccc2c1CN1CC[C@@H](C2CC2)C[C@H]1c1ccc(C(=O)O)cc1 — TEAE proteinuria (healthy Chinese subjects; 400 mg, single ascending dose): 0%
CO[C@H]1C[C@@H]2CC[C@@H](C)[C@@](O)(O2)C(=O)C(=O)N2CCCC[C@H]2C(=O)O[C@H]([C@H](C)C[C@@H]2CC[C@@H](O)[C@H](OC)C2)CC(=O)[C@H](C)/C=C(\C)[C@@H](O)[C@@H](OC)C(=O)[C@H](C)C[C@H](C)/C=C/C=C/C=C/1C — rectal temperature (healthy adult horses; oral, 0.06 mg/kg, 2 h): 36.9 ± 0.4 °C
OC[C@H]1O[C@@H](c2ccc(Cl)c(Cc3ccc(O[C@H]4CCOC4)cc3)c2)[C@H](O)[C@@H](O)[C@@H]1O — change in eGFR (Japanese type 1 diabetes patients, blood; 2.5 mg, day 28; relative to: baseline): 2.82 mL/min/1.73 m²
COc1ccnc(C(=O)N[C@H]2COC(=O)[C@H](Cc3ccccc3)[C@@H](O)[C@H](C)OC2=O)c1O — DT50 (aerobic dark soil incubation; silt loam soil; 20 °C, persistence endpoint): 14 days
C[C@H]1Oc2cc(cnc2N)-c2c(nn(C)c2C#N)CN(C)C(=O)c2ccc(F)cc21 — clearance (population PK; patients with mild renal impairment, plasma; oral, 100 mg, median, single dose): 134 mL/min
COc1cccc(OC)c1-c1cc(C(=O)NC2(C(=O)O)C3CC4CC(C3)CC2C4)nn1-c1ccc(C(=O)N(C)CCCN(C)CCCN(C)C(=O)CN2CCN(CC(=O)[O-])CCN(CC(=O)[O-])CCN(CC(=O)[O-])CC2)cc1C(C)C.[177Lu+3] (stereo not drawn) — tissue uptake (mouse, HT-29 xenograft, lung; 24 h post injection): 0.23 %ID/g
C[C@@H](Oc1ccc(S(C)(=O)=O)cc1C(=O)N1C[C@@H]2C[C@]2(c2cc(C(F)(F)F)on2)C1)C(F)(F)F — Vz/F at steady state (young humans, plasma; oral, 75 mg once daily, multiple dose, geometric mean): 489 L
NCCONC(=O)[C@@H]1CC[C@@H]2CN1C(=O)N2OS(=O)(=O)O — cumulative urinary excretion (0-24 h) (human, male, urine; intravenous infusion, 2 g multiple doses, day 9; relative to: dose): 87.1%
N=C1NC(=O)/C(=C/c2ccc(O)cc2)S1 — viability (HBL-1; 0.1 µM, 120 h): 111%
N#Cc1ccc(-c2cnc3ccc(-c4ccc(C(=O)N5CCOCC5)cc4)cn23)cc1 — placebo-corrected change from baseline (refers to: PR interval; healthy volunteers; oral, 10 mg, fed, time-averaged): -1.5 ms
C=CCN1CC(=O)N2[C@@H](Cc3ccc(O)cc3F)C(=O)N(Cc3cccc(N4CC(N5CCN(CC)CC5)C4)n3)C[C@@H]2N1C(=O)NCc1ccccc1 — treatment-related adverse events (refers to: Vomiting; advanced solid tumour patients; oral, 100 mg twice daily, expansion part, grade ≥3): 0%
O=C(O)C(Cc1c[nH]c2ccccc12)N1C(=O)c2ccccc2C1=O (stereo not drawn) — viability (HBL-1; 0.1 µM, 120 h): 108%
N#Cc1ccc2c(c1)[C@H]1CCCN(C(=O)c3ccc4[nH]cnc4c3)[C@H]1C2 — DHEA-S level (human, male; 40 mg, day 7): 4.7 µmol/L
C/C(=N\NC(=O)Cn1c(-c2ccc(S(C)(=O)=O)cc2)nc2cc(Cl)ccc21)c1ccc(Cl)cc1 — ulcer preventive index (rat, stomach; concentration not given, 4 h; relative to: normal control): 92.3%
CCc1cc2c(cc1CC)CC(NC[C@H](O)c1ccc(O)c3[nH]c(=O)ccc13)C2 — fraction unbound (equilibrium dialysis; rat, lung homogenate): 0.0026
NC1(C(=O)N[C@@H](CCO)c2ccc(Cl)cc2)CCN(c2nc[nH]c3nccc2-3)CC1 — incidence of Erythema (metastatic CRPC patients; 480 mg b.i.d., any grade, treatment-related, with: enzalutamide 160 mg daily): 0%

Repeated from above:
O=C(O)C(Cc1c[nH]c2ccccc12)N1C(=O)c2ccccc2C1=O (stereo not drawn) — viability (HBL-1; 0.1 µM, 120 h): 108%
